Results of several laboratories.
Numbered parts are unrelated; each lists some results of a single study. Changes are numbered by the printed parent chain.

Series 1
Target: Interferon regulatory factor 7, full length, phosphomimetic (IRF7, Homo sapiens, UniProt Q92985, residues 1-503, S101K/S471D/S472D/S475D/S476D/S477D/S483D/S484D/S487D)
Chain of UniProt Q92985 (whole entry, unmodified, looked up): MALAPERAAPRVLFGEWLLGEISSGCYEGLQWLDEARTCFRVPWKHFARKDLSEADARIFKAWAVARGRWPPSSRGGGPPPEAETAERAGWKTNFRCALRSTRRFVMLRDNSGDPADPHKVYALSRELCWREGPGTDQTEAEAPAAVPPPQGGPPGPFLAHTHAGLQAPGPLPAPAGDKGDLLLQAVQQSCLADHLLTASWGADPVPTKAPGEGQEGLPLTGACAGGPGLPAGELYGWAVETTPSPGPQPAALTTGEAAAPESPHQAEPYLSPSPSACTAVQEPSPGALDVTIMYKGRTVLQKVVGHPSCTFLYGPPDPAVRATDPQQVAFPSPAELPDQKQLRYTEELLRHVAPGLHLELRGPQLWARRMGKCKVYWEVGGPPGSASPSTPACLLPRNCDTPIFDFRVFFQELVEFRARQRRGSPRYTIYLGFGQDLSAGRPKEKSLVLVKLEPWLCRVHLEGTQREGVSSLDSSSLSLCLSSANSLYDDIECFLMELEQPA
Technique: protein-binding microarray
Molecule type: double-stranded DNA, one strand shown
Sample: in vitro
Concentration: 250 nM
Setting: 60-bp whole probe
With: salmon DNA 0.4 mg/ml
Baseline: random background probes
Reading: higher = stronger binding
Shared flanks, not repeated: GCCTAGCAC … GTCTTGATTCGCTTGACGCTGCTG
`TTAGATGTCGGGACTGGATTAGTGCTA` has a log fluorescence of -0.0958 z-score.
The log fluorescence of `TTTTTTTTCATCATTGCCTGGTGCTAG` is reported as 0.792 z-score.
For `GTTTTTTTCTACTTCTCTTTGTGCTAG`, the log fluorescence was 3.1 z-score.
For `TGAGGTTTCGGTATCGGTTAGTGCTAG`, the log fluorescence was 10.5 z-score.
The log fluorescence of `GACGGTCTCAGACTGGAGACGTGCTAG` is reported as -0.455 z-score.
With `TTAGGTTTCCGTCTCGGTTAGTGCTAG` the log fluorescence was 2.61 z-score.
For `GAGGGACTGGGTCTCGGGACGTGCTAG`, the log fluorescence was -0.3 z-score.
`TTAGATTTAGGGTATCGATTAGTGCTA` has a log fluorescence of 0.445 z-score.
For `GAGGATATCAGTTTCGAGACGTGCTAG`, the log fluorescence was 4.1 z-score.

Series 2
Target: ABI1, truncated, D143A, DHFR fusion (Arabidopsis thaliana)
Technique: DHFR PCA, deep sequencing
Sample: yeast
Setting: methotrexate growth selection, single substitutions
With: (+)-ABA 1.4 µM
Baseline: wild-type fitted maximum
Reading: higher = stronger binding
Parent: PYL1, truncated, DHFR fusion (Arabidopsis thaliana); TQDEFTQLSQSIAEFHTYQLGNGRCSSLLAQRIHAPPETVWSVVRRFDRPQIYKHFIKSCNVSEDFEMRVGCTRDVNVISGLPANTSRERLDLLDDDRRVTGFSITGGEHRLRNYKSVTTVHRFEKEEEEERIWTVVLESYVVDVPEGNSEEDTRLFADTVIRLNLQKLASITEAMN
Under “relative binding score”, `E89Y` is recorded as -9.45%.
`P50F` — result for “relative binding score”: -10.8%.
`G148Q` — result for “relative binding score”: 2.82%.
`A158C`: “relative binding score” 85.4%.
For `R32N`, “relative binding score” read -3.36%.
Under “relative binding score”, `G107T` is recorded as -3.54%.
`T6V`: “relative binding score” 69.1%.
`F56E`: “relative binding score” 4.76%.
`R163T`: “relative binding score” 49.9%.
For `T101L`, “relative binding score” read 68.5%.
Under “relative binding score”, `H34P` is recorded as 10.8%.

Series 3
Target: RNA binding protein fox-1 homolog 2, RRM domain, GST-SBP tag (RBFOX2, Homo sapiens, UniProt O43251-10, residues 100-194)
Technique: RNA Bind-n-Seq
Molecule type: RNA
Sample: in vitro
Concentration: 365 nM
Setting: natural RNA segment, single round, ends assumed
Baseline: no-protein control
Reading: higher = stronger binding
Construct (chain): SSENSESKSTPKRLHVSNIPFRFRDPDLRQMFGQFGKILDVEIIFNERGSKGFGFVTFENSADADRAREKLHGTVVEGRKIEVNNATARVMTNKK
For `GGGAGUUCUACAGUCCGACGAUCUUGUUACAUCUGGGAUACAGUCUAACUCAUCUGACUUAAUAUGCAUUUAAAAAAAUGCCAUAACUAUUAAACACCUUGUUUACAGACAGAUGAAAUAAAUUUAUUCCAACUGGAAUUCUCGGGUGCCAA`, “RBNS enrichment (R)” read 0.299.
Under “RBNS enrichment (R)”, `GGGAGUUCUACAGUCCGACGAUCUAACAGACAUUUCAGUUUUACCGUGCUCAUUUCUUUUUGCUGACUUAAGGUCAGAACUUUUACAGACAACAAACAACCCUAGGGUUUCUUUUUCCAGUUUACACAGACCGUGGAAUUCUCGGGUGCCAA` is recorded as 0.678.
`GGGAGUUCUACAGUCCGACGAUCGCAGACUGGUGAGCAGACUGGUGGGAUCUGUGCCCAGAGAUGGGACUGGGAGGGCCCACUUCAGGGUUCUCCUCUCCCCUCUAAGGCCGAAGAAGGGUCCUUCCCUCUCCUGGAAUUCUCGGGUGCCAA` — result for “RBNS enrichment (R)”: 0.284.
`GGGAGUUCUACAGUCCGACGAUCGCAAGAGCCAGUGCCUGACUGAGGCCUUCCUGUGUUGUGGCCUUCCCCCUCCAUCACCCCCAAGACCCCUCUUCUCCCUCUUCUUAGCCUGCUGUGUGAGAGAGGAGCCAUGGAAUUCUCGGGUGCCAA` — result for “RBNS enrichment (R)”: 1.31.
`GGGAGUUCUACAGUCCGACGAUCUUGGGUAUAUACCCAGUAAUGGGAUGGCUGGGUCAAAUGGUAUUUCUAGUUCUAGAUCCCUGAGGAAUCGCCACACUGACUUCCACAAUGGUUAAACUAAAGAGCUUCUGUGGAAUUCUCGGGUGCCAA` — result for “RBNS enrichment (R)”: 0.325.
For `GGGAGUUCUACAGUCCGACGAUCUCCUCCAGUAUUCCGUCUGUAGCAGGAGCUAGGGCUGCUGCCUCAGCUCCAAGACAAGAAUGAACCUGGCUGUGUCAGUCAUUUUGUCUUUUCCUUUUUUUUUUUUUUUUUGGAAUUCUCGGGUGCCAA`, “RBNS enrichment (R)” read 0.535.
For `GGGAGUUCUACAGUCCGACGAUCUUGCGUAGAUGUUGCCUGGUGCAAAGUGCCCCAAACAGCAAUAGAAAGGCAUAUGUAUAACCAAACUCCAAGUGAUAACCAGACCCAUCUCUCCUCCACCUUGACAAAAGUGGAAUUCUCGGGUGCCAA`, “RBNS enrichment (R)” read 0.471.
For `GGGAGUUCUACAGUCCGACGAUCGACAUGAGCAUCUUGGGAUAUCUCUUUAACACUCAAGUAGCAAUUAAAGUUGAUUGUUCAGCUGGAGCCCAGAGAAUUUAAUUACUGUUUUUUUCUUUGUACCUGAUGUGUGGAAUUCUCGGGUGCCAA`, “RBNS enrichment (R)” read 0.47.
`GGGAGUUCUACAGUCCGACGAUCGGACUACACUGUUGACCUACCCAUGUGACAGUUGUUUUGUUAGAUGGAGAUGUUGCGUUACUAUGGAGCUUACAUGAAAUGGGUAGCAUAUAGUUAAAGGUCGUGACAAAUGGAAUUCUCGGGUGCCAA` — result for “RBNS enrichment (R)”: 0.582.
`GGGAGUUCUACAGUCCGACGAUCUGAGACAUAGGGUCACUAGAGACCCUUCUGGGUCAGAGGAGAGAGACUGAAUUGGACUAAACCCGUCCUCUGUUCCCAGCACGUUUCUCAUAUAGCCCUCAGUCACUGAGUGGAAUUCUCGGGUGCCAA` — result for “RBNS enrichment (R)”: 2.22.
For `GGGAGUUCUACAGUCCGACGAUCCCACUUUAUUCAACUCCUUUACUUUCCUAGCCGGUUGAGGAGGGACCAUGAGAACAGAAAUUACCUUGUGACAAGACAAGUGUUCUCAGUUUUCUCCUCACAUAUUGACGUGGAAUUCUCGGGUGCCAA`, “RBNS enrichment (R)” read 0.456.
For `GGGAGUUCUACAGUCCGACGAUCAAAAAUACUGUAUUUAAAAUGUAAAAUAAACUUUUAAAAAGCAAGCACUAAUAUAUAUUUCUUUCAGCCUUUGAUUACAGUUUUGUCCUUGCACAUGUUAAGAUAAAUUAUGGAAUUCUCGGGUGCCAA`, “RBNS enrichment (R)” read 1.28.

Further values, each from its own experiment
For `PhoQ, residues 284 288 289 292 302 303 TSTLRA`, the fold induction was 1.31 (PhoP, residues 12 14 15 18 19 LHHVQ (Escherichia coli, UniProt P23836); Sort-seq, refers to: YFP reporter; E. coli; PhoQ-PhoP variant library, with: 10 µM Mg2+; baseline: high Mg2+ state, higher = stronger signaling).

A few entries again (series 3):
For `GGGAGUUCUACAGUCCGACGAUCGACAUGAGCAUCUUGGGAUAUCUCUUUAACACUCAAGUAGCAAUUAAAGUUGAUUGUUCAGCUGGAGCCCAGAGAAUUUAAUUACUGUUUUUUUCUUUGUACCUGAUGUGUGGAAUUCUCGGGUGCCAA`, “RBNS enrichment (R)” read 0.47.
`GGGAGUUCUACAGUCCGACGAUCGGACUACACUGUUGACCUACCCAUGUGACAGUUGUUUUGUUAGAUGGAGAUGUUGCGUUACUAUGGAGCUUACAUGAAAUGGGUAGCAUAUAGUUAAAGGUCGUGACAAAUGGAAUUCUCGGGUGCCAA` — result for “RBNS enrichment (R)”: 0.582.
`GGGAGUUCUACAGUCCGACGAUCUGAGACAUAGGGUCACUAGAGACCCUUCUGGGUCAGAGGAGAGAGACUGAAUUGGACUAAACCCGUCCUCUGUUCCCAGCACGUUUCUCAUAUAGCCCUCAGUCACUGAGUGGAAUUCUCGGGUGCCAA` — result for “RBNS enrichment (R)”: 2.22.
For `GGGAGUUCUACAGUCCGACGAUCCCACUUUAUUCAACUCCUUUACUUUCCUAGCCGGUUGAGGAGGGACCAUGAGAACAGAAAUUACCUUGUGACAAGACAAGUGUUCUCAGUUUUCUCCUCACAUAUUGACGUGGAAUUCUCGGGUGCCAA`, “RBNS enrichment (R)” read 0.456.
For `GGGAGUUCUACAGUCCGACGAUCAAAAAUACUGUAUUUAAAAUGUAAAAUAAACUUUUAAAAAGCAAGCACUAAUAUAUAUUUCUUUCAGCCUUUGAUUACAGUUUUGUCCUUGCACAUGUUAAGAUAAAUUAUGGAAUUCUCGGGUGCCAA`, “RBNS enrichment (R)” read 1.28.
